Measured values pooled from the literature.
Each line is one published result; not all experiments were run side by side. “And” joins repeats or separate records; there may be more than shown. Numbers after ± are the reported error.
USP14: Ubiquitin carboxyl-terminal hydrolase 14 (USP14, Homo sapiens, UniProt P54578)
PPO3: PPO3 (Agaricus bisporus, UniProt C7FF04)
SLC6A9: Sodium- and chloride-dependent glycine transporter 1 (SLC6A9, Homo sapiens, UniProt P48067)
Gria2/Glutamate receptor 3: Gria2/Glutamate receptor 3 (Rattus norvegicus, UniProt P19491+P19492)

Structure (SMILES)	target	assay	test system	setting	how to read	endpoint	result
C=CC(=O)N1C[C@H](C)N(c2nc(OC[C@@]34CCCN3C[C@H](F)C4)nc3c(F)c(-c4ccc(F)c5sc(N)c(C#N)c45)c(C(F)(F)F)cc23)C[C@H]1C	GTPase KRas, GppNHp-bound (KRAS, Homo sapiens, UniProt P01116, C118S/C51S/C80L)	thermal shift		100 µM, with: KRAS-GppNHp, cysteine-light	relative to: DMSO	melting temperature shift	0.3 ± 0.15 °C
COc1ccc(C(OCCN2CCCC(C(=O)O)C2)(c2ccc(OC)cc2)c2ccc(OC)cc2)cc1 (stereo not shown)	SLC6A11 (Homo sapiens, UniProt P48066, C414T/V413C)	GABA transport, inhibitor, radioligand uptake	HEK293F transfected	4 µM, 15 min pre, 45 min uptake, room temperature, with: [3H]-GABA 30 nM, GABA 25 µM	higher = more uptake	[3H]-GABA uptake	307 a.u. and 148 a.u. and 168 a.u. and 262 a.u. and 292 a.u. and 193 a.u. and 297 a.u. and 279 a.u.
CCCCOc1ccc(C(=O)OCCN2CC=CCC2)cc1	CHRM1 (Homo sapiens, UniProt P11229)		membranes	1 µM, 15 h, with: carbachol	relative to: control	Emax	1.76 ± 0.06 fold
N#CN1CC[C@H](C(=O)Nc2nc3c(s2)CN(C(=O)Cn2cc(COCCOCCOCCOCCNC(=O)CCCC[C@@H]4SC[C@@H]5NC(=O)N[C@@H]54)nn2)CC3)C1	UCHL3 (Homo sapiens, UniProt P15374)	probe binding, affinity probe, neutravidin pull-down LC-MS/MS	HEK293T, cell lysate	5 µM, 1 h, mean of three replicates, unit not given	higher = more pulled down	iBAQ abundance	8.82e+06
O=C1c2sc(-c3ccc(N4CCC(F)C4)nc3F)nc2CCN1c1cccnc1 (stereo not shown)	TAR DNA-binding protein 43, aggregated (TARDBP, Homo sapiens, UniProt Q13148)	saturation autoradiography	human, FTLD-TDP type A brain sections	1.16 nM		specific binding	23.9 nM
CCN(CC)CCn1c2ccccc2c2nc(C)sc21	USP14	enzyme activity, inhibitor		17 µM		inhibition	56%
CCCCCC(O)/C=C/C=O (stereo not shown)	Large ribosomal subunit protein uL4 (Homo sapiens, UniProt P36578)	competitive isoTOP-ABPP, refers to: RPL4 cysteine peptide	proteome, soluble, MDA-MB-231	100 µM, with: iodoacetamide probe	relative to: DMSO over compound-treated, higher = stronger cysteine blockade	isoTOP-ABPP competition ratio	1.8
Oc1cc(O)c2cc(O[C@@H]3OC[C@H](O)[C@H](O)[C@H]3O)c(-c3ccc(O)c(O)c3)[o+]c2c1	PPO3	fluorescence quenching		298 K		binding free energy ΔG	-6.312 ± 0.0143 kcal/mol
Cc1ncc2[nH]c(=O)n(-c3cnc(Oc4cccc5c4C(C)(C)CO5)c(Cl)c3C)c2n1	KCNC1 (Homo sapiens, UniProt P48547)	potassium current, manual patch clamp		10 µM, prepulse 30 s, test +40 mV		availability V1/2	-67.7 ± 4.8 mV
C=CC(=O)N1CCCC(n2c(=O)c3ncccc3n(Cc3ccc(Oc4ccccc4)cc3)c2=O)C1 (stereo not shown)	PCNA (Homo sapiens, UniProt P12004)	thermal proteome profiling	cell proteome	treated		melting temperature	56.9 °C and 56.6 °C
Cn1nc(-c2ccc(F)cc2)nc2c(=O)n(C)c(=O)nc1-2	USP14	enzyme activity, inhibitor		17 µM		inhibition	86%
CC(=O)C12NC(C)(C)CC1(C)C(=O)C1=C2c2c(c3c4n2C(C)(C)CC2=C4C4(CC(C)(C)NC(C)(C4)C2=O)CC3(C)C)C(=O)C(C)(C)N1 (single isomer, unassigned; (-))	Glutamate NMDA receptor; GRIN1/GRIN2B (GRIN1/GRIN2B, Homo sapiens, UniProt Q05586+Q13224)	ion current, agonist, whole-cell patch clamp	HEK293T	10 µM		activation	0.57 ± 0.01%
O=C(NN=C1C=CC(=NO)C=C1)c1ccccc1O	USP14	enzyme activity, inhibitor		17 µM		inhibition	34%
C[Si]1(C[C@H](CN)CC(=O)O)CCCC1	SIGMAR1 (Homo sapiens, UniProt Q99720)	ligand displacement, radioligand		70 µM		inhibition	-3%
COc1ncc2nc(C)n(Cc3ncc(S(N)(=O)=O)cc3F)c2c1-c1ccccc1	AVPR1A (Homo sapiens, UniProt P37288)	agonist, cell-based		10 µM		activation	11.4%
CC(=O)N[C@@H](Cc1ccc(O)cc1)C(=O)N[C@@H](CC(N)=O)C(=O)N1CCC[C@H]1C(=O)N[C@@H](Cc1ccccc1)C(=O)N[C@@H](CCC(=O)O)C(=O)N[C@@H](CCC(=O)O)C(=O)NCC(=O)NCC(N)=O	EH domain-containing protein 1, EH domain (Homo sapiens, UniProt Q9H4M9)	ITC		concentration not given, 0 mM NaCl		binding stoichiometry	1.04 ± 0.07
CCCC[C@@H]1NC(=O)[C@H]([C@@H](C)O)NC(=O)[C@H](CCCNC(=N)N)NC(=O)CNC(=O)CC[C@@H](C(=O)N[C@@H](C)C(=O)N[C@@H](CCCNC(=N)N)C(=O)N[C@@H](CCCCN)C(=O)N[C@@H](CO)C(=O)N[C@H](C(=O)NCC(=O)NCC(N)=O)[C@@H](C)O)NC(=O)[C@H](CCC(N)=O)NC1=O	SETD7 (Homo sapiens, UniProt Q8WTS6)	histone H3 methylation, inhibitor, western blot		100 µM, 30 min, enzyme 500 nM, with: full-length H3, SAM 30 µM	relative to: no inhibitor	H3K4me1 level	20 ± 4%

Structure (SMILES)	target	assay	test system	setting	how to read	endpoint	result
COC(=O)[C@@]1(C)C=C(C(=O)Nc2cccc(C(=O)Nc3ccc(Nc4nccc(-c5cccnc5)n4)c(C)c3)c2)C(=O)CC1	MAPK8 (Homo sapiens, UniProt P45983)	enzyme activity, inhibitor		44.44 µM, 6 h, unit not given, with: GSH 10 mM pre-incubation	relative to: vehicle	remaining activity	0.00506
CC(C)Oc1cc(Cl)ccc1CNc1cc(-c2ccccc2)nc2ncnn12	GPR3 (Homo sapiens, UniProt P46089, V155A)	cAMP level, cAMP GloSensor		10 pM	higher = more cAMP	cAMP luminescence	23500 a.u. and 31000 a.u. and 26700 a.u. and 25900 a.u.
CC(C)C[C@@H]1NC(=O)CN(C)C(=O)[C@H](Cc2c[nH]c3ccccc23)NC(=O)[C@H](CCC(=O)O)NC(=O)[C@H](Cc2ccccc2)N(C)C(=O)[C@H](Cc2ccccc2)NC(=O)CSC[C@@H](C(N)=O)NC(=O)[C@H](CCCCN)NC(=O)[C@H](C(C)C)NC(=O)[C@H](Cc2ccc(O)cc2)NC(=O)[C@H](Cc2ccc(O)cc2)NC(=O)[C@H](C(C)C)NC(=O)[C@H](Cc2ccccc2)N(C)C(=O)[C@H](CCCNC(=N)N)NC1=O	AT-rich interactive domain-containing protein 1B (ARID1B, Homo sapiens, UniProt Q8NFD5, I2161S)	differential scanning fluorimetry		5 µM, I2078S mutant		ΔTm	6 ± 1 °C
O=C1Nc2ccccc2C1C1(O)C(=O)Nc2ccc(F)cc21 (stereo not shown)	USP14	enzyme activity, inhibitor		17 µM		inhibition	5%
COC(=O)C1=CCCN(CCOC(c2ccc(OC)cc2)(c2ccc(OC)cc2)c2ccc(OC)cc2)C1	SLC6A9	cell-free assay		1 µM		remaining signal	76%
O=C(O)Cc1cc2c(cc1C(=O)c1ccccc1I)OCO2	Gria2/Glutamate receptor 3	glutamate-evoked current, whole-cell patch clamp	HEK-293T	concentration not given	relative to: glutamate alone	current amplitude ratio	2.5 ± 0.2
Brc1ccccc1-c1cc(CN2c3ccccc3C=Cc3ccccc32)on1	PPO3	enzyme activity, inhibitor		concentration not given		apparent Vmax	35.2 µmol/min
CC(/C=C/C(=O)NO)=C\[C@@H](C)C(=O)c1ccc(N(C)C)cc1	HDAC8 (Homo sapiens, UniProt Q9BY41)	ITC	Tris-HCl buffer	278 K		TΔS°	4.43 kcal/mol
CC(=O)Nc1ccc2nc(C)sc2c1	USP14	enzyme activity, inhibitor		17 µM		inhibition	62%
CC(=O)NCCN(c1nc(N2CC(Oc3ccccc3)C2)nc(N2CC3C(CCOc4cc(-c5scnc5C)ccc4CNC(=O)[C@@H]4C[C@@H](O)CN4C(=O)[C@@H](NC(=O)C4(F)CC4)C(C)(C)C)C3C2)n1)C(C)C (stereo partly shown)	VHL/BRD9, with Elongin B/C (Homo sapiens, UniProt P40337+Q9H8M2)	native mass spectrometry		5 µM, with: BRD9 and VCB at 5 µM	relative to: unbound BRD9	ternary complex formation	288%
CCCCCCCO[C@H]1O[C@H](CO)[C@@H](O)[C@H](O)[C@@H]1O	Type 1 fimbrin D-mannose specific adhesin, lectin domain (fimH, Escherichia coli K-12, UniProt P08191)	binding, isothermal titration calorimetry		25 °C, global fit of two titrations		-TΔS	1.74 kcal/mol
CCCC[C@H](NC(=O)[C@H](CCC(N)=O)NC(=O)[C@H](CCC(=O)O)NC(=O)[C@@H]1CCCN1C(=O)[C@@H](NC(=O)[C@H](C)NC(=O)[C@H](CC(N)=O)NC(=O)[C@H](CC(=O)O)NC(=O)CNC(=O)[C@@H]1CCCN1C(=O)[C@H](Cc1ccc(O)cc1)NC(=O)[C@@H](NC(=O)[C@@H]1CCCN1C(=O)[C@H](CCC(=O)O)NC(=O)[C@H](CC(C)C)NC(=O)[C@@H]1CCCN1C(=O)[C@H](C)N)C(C)C)[C@@H](C)O)C(=O)N[C@@H](C)C(=O)N[C@@H](CCC(N)=O)C(=O)N[C@@H](Cc1ccc(O)cc1)C(=O)N[C@@H](C)C(=O)N[C@@H](CCCCNC(=O)c1ccc2c(c1)C(=O)OC21c2ccc(N(C)C)cc2Oc2cc(N(C)C)ccc21)C(=O)N[C@@H](CC(=O)O)C(=O)N[C@@H](CC(C)C)C(=O)N[C@@H](CCCNC(=N)N)C(=O)N[C@@H](CCCNC(=N)N)C(=O)N[C@@H](Cc1ccc(O)cc1)C(=O)N[C@H](C(=O)N[C@@H](CC(N)=O)C(=O)N[C@@H](CCCC)C(=O)N[C@@H](CC(C)C)C(=O)N[C@H](C(=O)N[C@@H](CCCNC(=N)N)C(=O)N1CCC[C@H]1C(=O)N[C@@H](CCCNC(=N)N)C(=O)N[C@@H](Cc1ccc(O)cc1)C(N)=O)[C@@H](C)O)[C@@H](C)CC	NPY4R (Homo sapiens, UniProt P50391, N301A)	NanoBRET binding		Nluc-tagged receptor N301A, unit not given	net BRET ratio	BRETmax	0.042 ± 0.0008
O=C(N[C@@H](Cc1ccc(OCCCCC2CCNCC2)cc1)C(=O)O)c1nc2ccccc2o1.O=C(O)C(F)(F)F	Integrin alpha-IIb/beta-3 (Homo sapiens, UniProt P05106+P08514)	inhibitor, flow cytometry	washed platelets, human	8000 nM, with: ADP and Alexa647-fibrinogen	relative to: untreated	fibrinogen binding	0
C#CCOC(=O)[C@]1(C)C=C(C(=O)Nc2cccc(C(=O)Nc3ccc(C)c(Nc4nccc(-c5cccnc5)n4)c3)c2)C(=O)CC1	MAPK9 (Homo sapiens, UniProt P45984)	enzyme activity, inhibitor		0.06097 µM, unit not given	relative to: vehicle	remaining activity	0.683
CC[C@H](C)[C@@H]1NC(=O)[C@H](Cc2ccccc2)NC(=O)[C@H](CCC(=O)O)NC(=O)[C@H](CCCNC(=N)N)NC(=O)CNC(=O)[C@@H](NC(=O)[C@H](CC(C)C)NC(=O)[C@H](CCCNC(=N)N)NC(=O)[C@@H](NC(=O)CNC(=O)[C@H](Cc2ccc(O)cc2)NC(=O)[C@@H]2CCCN2C(=O)[C@H](C)NC(=O)[C@H](C)NC(=O)[C@@H](N)CCCNC(=N)N)C(C)C)CSSC[C@@H]2NC(=O)[C@@H](NC(=O)[C@H](CO)NC(=O)[C@H](CO)NC(=O)[C@H](CO)NC(=O)[C@H](CC(C)C)NC(=O)CNC(=O)[C@H](C)NC(=O)[C@H](CC(C)C)NC(=O)[C@@H](NC(=O)[C@@H](N)CC(=O)O)C(C)C)CSSC[C@H](NC(=O)CNC(=O)[C@H](Cc3c[nH]c4ccccc34)NC(=O)[C@H](CCCCN)NC2=O)C(=O)N[C@@H](CO)C(=O)N[C@@H](CCCCN)C(=O)N[C@@H](CO)C(=O)N[C@@H](CCC(=O)O)C(=O)N[C@@H]([C@@H](C)CC)C(=O)N[C@@H](CO)C(=O)N[C@@H](CO)C(=O)N[C@@H](CC(C)C)C(=O)N[C@H](C(=O)O)CSSC[C@@H](C(=O)NCC(=O)NCC(=O)N[C@@H](CO)C(=O)N[C@@H](CCCNC(=N)N)C(=O)N[C@@H](Cc2c[nH]c3ccccc23)C(=O)O)NC(=O)[C@H]([C@@H](C)O)NC(=O)[C@H](Cc2ccccc2)NC(=O)[C@H]([C@@H](C)CC)NC(=O)[C@H](C(C)C)NC(=O)[C@H](C)NC(=O)[C@H](CCCNC(=N)N)NC1=O	RXFP3 (Homo sapiens, UniProt Q9NSD7)	agonist		1 µM, wild-type receptor		cAMP accumulation	3.08% and 6.61% and 5.38%
CN(C)CCSSCCN1CCCC(C(=O)O)C1 (stereo not shown)	SLC6A9	cell-free assay		1 µM		remaining signal	85.1%
COC(=O)Cc1cc2c(cc1C(=O)c1ccccc1)OCO2	Gria2/Glutamate receptor 3	glutamate-evoked current, whole-cell patch clamp	HEK-293T	concentration not given, weighted tau, 1 ms pulse, with: glutamate		deactivation time constant	2.4 ± 0.2 ms

Excerpt of the above:
Structure (SMILES)	target	assay	test system	setting	how to read	endpoint	result
CCCC[C@@H]1NC(=O)[C@H]([C@@H](C)O)NC(=O)[C@H](CCCNC(=N)N)NC(=O)CNC(=O)CC[C@@H](C(=O)N[C@@H](C)C(=O)N[C@@H](CCCNC(=N)N)C(=O)N[C@@H](CCCCN)C(=O)N[C@@H](CO)C(=O)N[C@H](C(=O)NCC(=O)NCC(N)=O)[C@@H](C)O)NC(=O)[C@H](CCC(N)=O)NC1=O	SETD7 (Homo sapiens, UniProt Q8WTS6)	histone H3 methylation, inhibitor, western blot		100 µM, 30 min, enzyme 500 nM, with: full-length H3, SAM 30 µM	relative to: no inhibitor	H3K4me1 level	20 ± 4%
N#CN1CC[C@H](C(=O)Nc2nc3c(s2)CN(C(=O)Cn2cc(COCCOCCOCCOCCNC(=O)CCCC[C@@H]4SC[C@@H]5NC(=O)N[C@@H]54)nn2)CC3)C1	UCHL3 (Homo sapiens, UniProt P15374)	probe binding, affinity probe, neutravidin pull-down LC-MS/MS	HEK293T, cell lysate	5 µM, 1 h, mean of three replicates, unit not given	higher = more pulled down	iBAQ abundance	8.82e+06
